Measurements pooled from the literature.
Every numbered part comes from another study and shows a few of its results, in no order.

Sample 1
Target: RNA binding protein fox-1 homolog 2, RRM domain, GST-SBP tag (RBFOX2, Homo sapiens, UniProt O43251-10, residues 100-194)
Technique: RNA Bind-n-Seq
Molecule type: RNA
Matrix: in vitro
Tested at: 365 nM
Setting: natural RNA segment, single round, ends assumed
Relative to: no-protein control
Reading: higher = stronger binding
Measurement: RBNS enrichment (R)
Constant ends, left off below: GGGAGUUCUACAGUCCGACGAUC … UGGAAUUCUCGGGUGCCAA
Residues (chain): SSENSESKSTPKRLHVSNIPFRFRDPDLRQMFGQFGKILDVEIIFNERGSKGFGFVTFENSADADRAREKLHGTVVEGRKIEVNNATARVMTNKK
UUAGUGCUGAUGACAGAGGGGCCGGUCGCAUGGGAUGAGGCUCGGUGGGCCUCUUGCUUGUUGUCUCCUGUCUCCUCAAAUGGCUGAAAACUUGGAGGGUCUCGGUUGUU: 0.548
CUGGUGAAGGCCCUGGAGUAGCGGGCCAGCCGCCAAGGUUGACCUCAGCUUCGGAGCCACCUCUGGAUGAACUGCCCCCAGCCCCCGCCCCAUUAAAGACCCGGAAGCCU: 0.315
UCUUAUCUGCUUAGUGGAUUUUAUGCCCUUAUAACUAAGUAAAGAAAAUUUAUGACUACCAAAUAUUUAGGAUACUUAGAAAUAUUUUACUACAUAUGAAUCUGAUAUUC: 0.49
UUUAACAUGAAUAGAUACCUUGUAAACUUGUAUUGUGGAUGUGUAAAUAAUAUGUACUUUGGGUUUUUAACACCGCAUGUAAAGUCAAAAUAAAAUAUACAAAUCAUUAU: 42.4
GGUGGCAUGGGACUUUUUGUCCUUGGACACAAACCUGCAGAUCCUAGGAGUAAUAGUUUCCCCCAAGGACAGCCCAGCCCAUGGACCACUUCUUCCUCAGUGGAGAUACC: 0.358
UUACACUGUGGUACAUAUAAGCAACUUGACUAGUGACAAAUGUACAGUAGUUAGAUAUCACCUACAUAUACAUUUUUCCAUUUUAUGCUCUAUGAUCUGAAGAACAAAAA: 0.974

Sample 2
Target: Sal-like protein 4, full length isoform B (SALL4, Homo sapiens, UniProt Q9UJQ4-2, residues 1-616)
Technique: universal PBM
Molecule type: double-stranded DNA, one strand shown
Matrix: in vitro
Tested at: not given
Setting: 8-mer, flanks averaged, mean of replicates
Reading: higher = stronger binding
Measurement: E-score
Construct (chain): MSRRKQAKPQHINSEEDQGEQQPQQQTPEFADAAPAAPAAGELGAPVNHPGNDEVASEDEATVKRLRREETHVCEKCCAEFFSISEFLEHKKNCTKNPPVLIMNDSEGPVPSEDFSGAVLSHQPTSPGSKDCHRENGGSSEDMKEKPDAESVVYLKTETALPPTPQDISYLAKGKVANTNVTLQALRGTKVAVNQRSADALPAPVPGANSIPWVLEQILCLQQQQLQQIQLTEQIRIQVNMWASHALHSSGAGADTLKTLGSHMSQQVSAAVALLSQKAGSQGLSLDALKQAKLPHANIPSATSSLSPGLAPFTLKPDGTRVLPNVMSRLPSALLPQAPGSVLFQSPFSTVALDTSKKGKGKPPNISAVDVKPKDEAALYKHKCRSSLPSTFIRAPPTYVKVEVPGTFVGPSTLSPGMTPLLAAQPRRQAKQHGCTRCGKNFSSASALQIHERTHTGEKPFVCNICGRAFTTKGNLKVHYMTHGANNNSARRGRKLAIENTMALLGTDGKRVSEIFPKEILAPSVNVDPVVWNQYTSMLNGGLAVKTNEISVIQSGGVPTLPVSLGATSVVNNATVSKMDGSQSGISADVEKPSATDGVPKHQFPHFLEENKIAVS
AGTCGCCG: -0.336
CCACTTTA: 0.0772
AAAGTCTT: 0.0276
AAGAACGA: 0.0716
CATCCTAG: -0.099

Sample 3
Target: Histone acetyltransferase KAT6A, both winged helices, GST fusion (KAT6A, Homo sapiens, UniProt Q92794, residues 1-181)
Technique: protein binding microarray
Molecule type: double-stranded DNA, one strand shown
Matrix: in vitro
Tested at: not given
Setting: 8-mer, flanks averaged, mean of 2 arrays, mostly near background
Relative to: not given
Reading: higher = stronger binding
Measurement: E-score
Residues (chain): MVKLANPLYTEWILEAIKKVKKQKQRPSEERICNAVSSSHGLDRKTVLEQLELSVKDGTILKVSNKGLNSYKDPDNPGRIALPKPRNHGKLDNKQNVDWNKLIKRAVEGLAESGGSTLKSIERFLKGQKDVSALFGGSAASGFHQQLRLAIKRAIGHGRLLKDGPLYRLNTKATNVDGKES
ATTTGCCA: -0.163
ACACACCC: 0.0138
AACGCTCG: 0.171
CGTTCCGA: 0.0885
AGGCAACC: -0.125
GTGTGTTA: -0.0746

Other studies, line by line
PhoQ, residues 284 288 289 292 302 303 NLMGRA  fold induction (PhoP, residues 12 14 15 18 19 QYCSL (Escherichia coli, UniProt P23836); Sort-seq, measured: YFP reporter; E. coli; PhoQ-PhoP variant library, added: 10 µM Mg2+; relative to: high Mg2+ state, higher = stronger signaling): 12.1

For quick reference, copied from above (sample 3):
AGGCAACC: -0.125
GTGTGTTA: -0.0746
